Experimental data pooled from the literature.
Compare with care: the assays were run in different laboratories. Values joined by “and” are separate records of one study, mostly repeats; a detail may differ.
Target: Mitogen-activated protein kinase 13 (MAPK13, Homo sapiens, UniProt O15264)

| SMILES | assay | setting | how to read | endpoint | value |
| --- | --- | --- | --- | --- | --- |
| Cc1ccc(C)c(-c2ccc3nc(NC(=O)C4CCCCC4)nn3c2)c1 | enzyme activity, Dundee kinase panel | 10 µM |  | remaining activity | 74% |
| C=CC(=O)Nc1cccc(-c2cnc3[nH]cc(C(=O)NC(C)(C)C)c3n2)c1 | kinase activity | 0.1 µM |  | inhibition | 2% and 3% |
| CCn1cc(C(=O)O)c(=O)c2c(N)c(F)c(NC3CCCCC3)cc21 | kinase activity | 0.1 µM, with: ATP at Km |  | inhibition | 8.2% |
| CNC(=O)C[C@H](Cc1ccc(C#N)cc1)NC(=O)c1cc(-c2ccc(CN[C@H](C)c3ccc(C)cc3)o2)ccc1Cl | enzyme activity, inhibitor | 1 µM |  | activity vs control | 104% |
| C=CC(=O)N1Cc2nc(-c3cc(-c4cc(Cl)cnc4Cl)c(F)cc3F)n(-c3ccncn3)c2C1 | cell-free assay, inhibitor | 1 µM |  | inhibition | 6.4% |
| CNC(=O)C1CCN(c2cc(C)c(F)cc2NC(=O)c2ccc(-c3cc(O)ccc3C)c(C)c2)CC1 | binding, competition with immobilised ligand | 1 µM |  | remaining binding | 99% |
| O=C=[N][Ru-4]123([n]4c5ccc(O)cc5c5c6c(c7cc(F)c[n+]1c7c54)C(=O)NC6=O)[S+]1CC[S+]2CC[S+]3CC1 (centres unmarked) | enzyme activity | 100 nM, human enzyme, with: 10 µM ATP | baseline: untreated | remaining activity | 91% |
| C=CC(=O)N1CCCC(n2c(=O)c3ncccc3n(Cc3ccc(Oc4ccccc4)cc3)c2=O)C1 (centres unmarked) | cell-free assay, competition with immobilised ligand | 1 µM |  | remaining binding | 95% |
| Cc1cccc(-c2ccc3nc(NC(=O)C4CCCO4)nn3c2)c1 (centres unmarked) | enzyme activity, Dundee kinase panel | 10 µM |  | remaining activity | 86% |
| COc1ccc(C(=O)/C=C/c2ccccc2-c2c[nH]c3ccc(C#N)cc23)c(O)c1 | enzyme activity, inhibitor | 20 µM |  | inhibition | -1% |
| CC(C)=CC1OC(C)(C)C2C=C3C(=O)C(Cl)=CC(O)C3C3C(O)C4OC4C(=O)C132 (centres unmarked) | cell-free assay, competition with immobilised ligand | 10 µM |  | remaining binding | 63% |
| CN1CCN(Cc2ccc(-c3ccc(CO[C@H]4CCC[C@@H]4NC(=O)c4cc(-c5cnn(C)c5)cnc4N)cc3)cc2)CC1 | enzyme activity, inhibitor | 0.1 µM |  | inhibition | 5% |
| O=C(Cc1ccc(OCc2ccccc2)cc1)NC1(C(=O)O)CCN(C(=O)c2ccc(-c3cccc(Cl)c3)cc2)CC1 | enzyme activity, inhibitor | 10 µM |  | activity vs control | 113% |
| COc1ccc(NC(=O)Nc2ccc3c(c2)C(=O)N(C(C)CO)CC(C)C(CN(C)Cc2ccc4c(c2)OCO4)O3)cc1 (centres unmarked) | kinase activity, KinaseProfiler | 0.03 µM, species human | baseline: control | remaining activity | 81% |
| COc1cc(Nc2nccc(-c3cnn4nc(OC)ccc34)n2)cc(C(F)(F)F)c1 | binding, competition with immobilised ligand | 1 µM |  | remaining binding | 98% |
| Cc1cccc(O[C@H]2CCC[C@@H](C(C)CNCc3ccncc3)C2)c1 (relative stereo) | enzyme activity, inhibitor | 10 µM |  | inhibition | -5% |
| NC(=O)C[C@H]1CCc2sc3ncnc(O[C@H]4CC[C@H](N5CCOCC5)CC4)c3c21 | enzyme activity, inhibitor | 10 µM |  | inhibition | 0% |
